Results collected from several papers.
Every numbered part comes from another study and shows a few of its results, in no order. Changes are numbered by the printed parent chain.

Sample 1
Target: Histone acetyltransferase KAT6A, both winged helices, GST fusion (KAT6A, Homo sapiens, UniProt Q92794, residues 1-181)
Technique: protein binding microarray
Form: double-stranded DNA, one strand shown
Sample: in vitro
Concentration: not given
Setting: 8-mer, flanks averaged, mean of 2 arrays, mostly near background
Reference: not given
Direction: higher = stronger binding
Construct (chain): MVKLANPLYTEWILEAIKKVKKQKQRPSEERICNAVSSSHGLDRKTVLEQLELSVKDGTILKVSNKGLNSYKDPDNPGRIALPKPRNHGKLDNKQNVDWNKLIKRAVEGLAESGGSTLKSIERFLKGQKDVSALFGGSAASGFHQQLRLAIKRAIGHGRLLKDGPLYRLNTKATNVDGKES
Oligonucleotide	E-score
AAAAGTTA	-0.0986
AACGGTTG	-0.0685
AGTGACAG	-0.116
AGACATAA	-0.0122
GGTCATTA	0.115
AGGCCCGA	0.026
TCAGAGAA	-0.149
AGTATTTC	-0.0475
TGATCGAA	-0.0236
AAGCTGGG	-0.0975
GTGGAACA	0.0238
ACCCTACC	-0.193
ACCCAGAA	-0.132
AAAGCTCC	-0.0333
CAAACCGA	0.0245
AAGCAGGC	-0.0753
CGTACACG	0.166
GCTTGGGA	-0.115
CTCCTCCA	-0.283
AAGGCACG	-0.00377

Sample 2
Target: CCNA2, cyclin fold, Cln2 fusion (human)
Technique: yeast growth competition, sequencing
Sample: yeast
Setting: strong parent motif
Reference: not given
Direction: higher = stronger binding
Parent: PKN2 docking peptide (human); VSAVRKLDFSDTM; partner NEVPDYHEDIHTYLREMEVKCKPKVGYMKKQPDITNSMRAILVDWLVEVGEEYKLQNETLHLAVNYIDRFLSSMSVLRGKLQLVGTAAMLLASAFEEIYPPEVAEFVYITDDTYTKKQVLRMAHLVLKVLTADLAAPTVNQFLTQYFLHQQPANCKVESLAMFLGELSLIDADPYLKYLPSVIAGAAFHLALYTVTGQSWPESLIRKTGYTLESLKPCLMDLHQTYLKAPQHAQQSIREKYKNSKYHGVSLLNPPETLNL
Substitution	normalised enrichment score
VSAVRKLDFYDTM [S10Y]	5.18
VSAVRHLDFSDTM [K6H]	5.01
VSAVRKLDHSDTM [F9H]	0.000185
VSAVRKLDFSDYM [T12Y]	5.44
VSAVRKLSFSDTM [D8S]	4.66
VKAVRKLDFSDTM [S2K]	5.79
VSTVRKLDFSDTM [A3T]	4.16
VMAVRKLDFSDTM [S2M]	4.89
VCAVRKLDFSDTM [S2C]	5.3
VSCVRKLDFSDTM [A3C]	5.16
VSAVIKLDFSDTM [R5I]	2.06
VSAVRKLDFSDPM [T12P]	5.27
VSSVRKLDFSDTM [A3S]	4.82
VSAVRKLDFDDTM [S10D]	5.45
VSAVRKLDMSDTM [F9M]	2.69
VSAVRKLDFPDTM [S10P]	4.68
VSAVRKLDFCDTM [S10C]	5.04

Sample 3
Target: ABI1, truncated, D143A, DHFR fusion (Arabidopsis thaliana)
Technique: DHFR PCA, deep sequencing
Sample: yeast
Setting: methotrexate growth selection, single substitutions
Added: (+)-ABA 0 µM
Reference: wild-type fitted maximum
Direction: higher = stronger binding
Parent: PYL1, truncated, DHFR fusion (Arabidopsis thaliana); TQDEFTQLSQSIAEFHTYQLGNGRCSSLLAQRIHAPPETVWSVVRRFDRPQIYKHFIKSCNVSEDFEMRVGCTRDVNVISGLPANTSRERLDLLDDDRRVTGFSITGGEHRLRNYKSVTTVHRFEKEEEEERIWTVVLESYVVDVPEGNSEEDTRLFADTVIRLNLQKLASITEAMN; partner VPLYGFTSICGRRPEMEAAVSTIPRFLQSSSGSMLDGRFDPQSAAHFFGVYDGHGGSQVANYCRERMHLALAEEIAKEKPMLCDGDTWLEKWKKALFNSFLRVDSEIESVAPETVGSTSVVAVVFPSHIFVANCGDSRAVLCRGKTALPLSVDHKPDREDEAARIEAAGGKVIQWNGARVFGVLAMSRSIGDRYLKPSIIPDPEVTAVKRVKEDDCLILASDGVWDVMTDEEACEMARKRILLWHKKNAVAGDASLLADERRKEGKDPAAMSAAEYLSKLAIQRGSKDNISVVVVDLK
Substitution	relative binding score
T106E	8.49%
S59Q	5.28%
F103W	-3.37%
D144E	2.43%
E131D	42.6%
V78S	13.7%
T173W	-6.18%
P83D	4.42%
R32K	28.1%
I162V	38.3%
D3M	31.8%

Sample 4
Target: Ras GTPase-activating protein-binding protein 1, C-terminal RGG region (G3BP1, Homo sapiens, UniProt Q13283)
Sequence of UniProt Q13283 (whole entry, looked up): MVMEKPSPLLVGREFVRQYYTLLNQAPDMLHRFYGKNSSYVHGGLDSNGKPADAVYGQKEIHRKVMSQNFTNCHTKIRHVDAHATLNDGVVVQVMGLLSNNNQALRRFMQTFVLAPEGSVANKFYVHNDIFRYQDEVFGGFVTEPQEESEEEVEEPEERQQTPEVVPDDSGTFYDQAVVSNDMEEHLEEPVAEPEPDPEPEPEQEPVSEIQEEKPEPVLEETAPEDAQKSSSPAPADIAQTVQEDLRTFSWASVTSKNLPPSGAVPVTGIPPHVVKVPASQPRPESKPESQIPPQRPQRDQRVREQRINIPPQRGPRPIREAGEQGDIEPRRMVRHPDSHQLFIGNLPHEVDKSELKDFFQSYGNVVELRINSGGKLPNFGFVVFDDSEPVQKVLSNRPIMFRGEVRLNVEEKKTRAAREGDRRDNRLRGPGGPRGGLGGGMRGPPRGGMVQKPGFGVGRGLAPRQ
Technique: RNA Bind-n-Seq
Form: RNA
Sample: in vitro
Concentration: 1 µM
Setting: whole 134-nt RNA, ends assumed
Added: 150 mM KCl
Reference: input library
Direction: higher = stronger binding
Shared flanks, not repeated: GGGAGUUCUACAGUCCGACGAUC … UGGAAUUCUCGGGUGUCAAGG
Oligonucleotide	log2 enrichment
UCUGCUAAAGAGAAAGGAAAAUUUGAAGAUAUGGCAAAAGCGGACAAGGCCCGUUAUGAAAGAGAAAUGAAAACCUAUAUCCCUCCCAAA	-0.529
UCCUGUGCUACACAUCGUAUGUACCGAAUCGGUUUUUUGGGGUUUUUUGGGUUUUUUGGAAAGUAUUAUGUUACGCCGUUCGGAUCUGCA	-0.566
CAAGUCCUGUGCUACACAUCGUAUGUACCGAAUCGGGUGGGUGGGAAAAAAAGGGAAAGUAUUAUGUUACGCCGUUCGGAUCUGCACUUC	0.218
CCUGUGCUACACAUCGUAUGUACCGAAUCGGGGUUUUUUGGGUUUUUUGGGGUUUUUUGGGAAAGUAUUAUGUUACGCCGUUCGGAUCUG	-1.04
CUCAAGUCCUGUGCUACACAUCGUAUGUACCGAAUCGGCCGGGCCGGGGCCGGGAAAGUAUUAUGUUACGCCGUUCGGAUCUGCACUUCC	-1.07
UGGGAGGUGGAUUUUGUUUAUUUUUUUAGCUCAUUUCCAGGGGUGGGAAUUUUUUUUUAAUAUGUGUGAUGAAUAAAGUUGUUUUUGAAA	3.08
AAGUCCUGUGCUACACAUCGUAUGUACCGAAUCGGAAAAAAAGGUGGUUUUUUUGGAAAGUAUUAUGUUACGCCGUUCGGAUCUGCACUU	-2.04
CACAGACAACACGCACCCACACAGACACAGAGGGAAGGGGUUGGGAUGGGGACAGGGUGCACAGCAGGGCGGGGUAGGCCCCCAGCCCCU	-1.37
UCCUAGUCCUAGGAAAACUCCAGUUGCCAGUGAUCAACGCCGUAGGUCCUGCAAAACAGCCCCUGCUUCCAGCAGCAAAUCUCAGACAGA	-0.524
CCUCAAGUCCUGUGCUACACAUCGUAUGUACCGAAUCGGGGUGGUGGGUGGGGAAAGUAUUAUGUUACGCCGUUCGGAUCUGCACUUCCA	0.8
UCAAGUCCUGUGCUACACAUCGUAUGUACCGAAUCGGUUUGGUGGUUUUUUUGGAAAGUAUUAUGUUACGCCGUUCGGAUCUGCACUUCC	-1.03
UGGGAGGUGGAUGUUGUUUAUUUUUUUAGCUCAUUUCCAGGGGUGGGAAUUUUUUUUUAAUAUGUGUCAUGAAUAAAGUUGUUUUUGAAA	2.89
CCUGUGCUACACAUCGUAUGUACCGAAUCGGAAAAAAGGGAAAAAAGGGGAAAAAAGGGGAAAGUAUUAUGUUACGCCGUUCGGAUCUGC	-1.63
UGGCCCUGGUGGCAUGCGGGGAGGAAGAGGUGGCCUCAUGGAUCGUCGUGGUCCCGGUGGAAUGUUCAGAGGUGGCCGUGGUGGAGACAG	2.27

Sample 5
Target: RING finger protein unkempt homolog, zinc fingers 1-6, GST-SBP tag (UNK, Homo sapiens, UniProt Q9C0B0, residues 30-357)
Sequence of UniProt Q9C0B0 (30-357, looked up): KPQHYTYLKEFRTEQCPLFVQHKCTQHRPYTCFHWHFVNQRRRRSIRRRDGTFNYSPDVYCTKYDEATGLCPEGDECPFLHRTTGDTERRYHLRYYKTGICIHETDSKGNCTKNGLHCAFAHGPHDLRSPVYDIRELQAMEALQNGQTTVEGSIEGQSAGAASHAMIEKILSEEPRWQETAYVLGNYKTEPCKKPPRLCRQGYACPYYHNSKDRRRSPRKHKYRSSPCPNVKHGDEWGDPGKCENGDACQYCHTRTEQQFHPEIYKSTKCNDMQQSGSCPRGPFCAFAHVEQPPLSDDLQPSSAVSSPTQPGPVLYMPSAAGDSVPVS
Technique: RNA Bind-n-Seq
Form: RNA
Sample: in vitro
Concentration: not given
Setting: RNA with constant flanks, ends assumed
Reference: input RNA pool
Direction: higher = stronger binding
Shared flanks, not repeated: GGGAGUUCUACAGUCCGACGAUC … CAACAGAGGAUUGAGCAUCA
Oligonucleotide	bound/input enrichment
AACAAGACAGACUUGCUUGAGGAGAAGGUGCAAAUUGUGAGCAUCAAAGACUAUUUCCCCGAAUUUGAAGGGGAUCCCCACUGCUUAAGAGACGUCCAAAAAUUCCUGGUGGAAUGUUUC	0.168 ratio
CCUGAAUUCUUGGUCUAUUUUCCAUUGCUAAAUGAAAUGGCAAAGAAGUACAAUAUGAAACCCGUCUACAAAAAAACAUUUCUGGAAUUCUACGAAGAAAAGAUUAAGAACAAUGAAAAU	0.278 ratio
UUUAUAUUUAACUAAAUGUAAGGUACGAAUUAUUACAUAUUAAACUUUUCUUCCCCUUCCCCGUUCUGAAGUAGAUAUAUAUAUAUAUAUAUCUACUGUCACAUUCCAUAUAUUUUGAAU	5.77 ratio
GCCCUCAACUUCUCCGUGUUCUACUAUGAGAUCCAGAAUGCACCUGAGCAAGCCUGCCUCUCCGCCAAACAAGCCUUCGAUGAUGCCAUAGCUGAGCUGGACACACUAAACGAGGAUUCC	0.251 ratio
UGUGAAAGUGAGGGGAGGCUCCUGUCCCCCUCUCUUAAGGUCCCCAAACCUGGGAGUGCACCGGUACUAAAUCAAGCAGUGCAACUUGUAAUUAAGCAGCUGCAGUGUUUACAUGUUUCU	0.135 ratio
AGACAUGUCCUCACGUACAUGGAGGAUGCAGUGUGCCAGCUGCUGGAGAACAGGGAGGAUAUCCGCCAGUAUGGCAUUGCCCGGUUCUUCACUGACUAUUUUAACAGCGUAUGCCAAGGA	0.109 ratio

Sample 6
Target: Prothrombin, mature alpha-thrombin (F2, Homo sapiens, UniProt P00734)
Technique: aptamer microarray, sandwich
Form: DNA with 2'F-ANA
Sample: in vitro
Concentration: 200 nM
Setting: whole 15-mer aptamer, many near background
Added: Cy3 exosite-II aptamer, 400 nM
Direction: higher = stronger binding
Oligonucleotide: GGTTGGTGTGGTTGG
Modification	mean fluorescence intensity [a.u.]
2'F-ANA at 1 6 7 9 10 11 14	48.1
2'F-ANA at 2 4 5 6 7 8 9 10 11 12 13	54.7
2'F-ANA at 2 4 5 9 10 13	45.7
2'F-ANA at 3 5 7 12 15	260
2'F-ANA at 1 2 4 5 6 7 9 10 12 13	60.7
2'F-ANA at 1 3 5 6 7 9 12 13	78.7
2'F-ANA at 2 5 6 10	56.2
2'F-ANA at 2 6 8 10 11 12 13 14	88.4
2'F-ANA at 2 3 6 7 13	488
2'F-ANA at 1 3 5 6 7 10 11 12 14	48.4
2'F-ANA at 1 6 8 9 12 13 15	263
2'F-ANA at 3 5 8 9 11 15	107
2'F-ANA at 1 2 4 9 10	47.9
2'F-ANA at 1 8 10 11 12 15	67.4
2'F-ANA at 3 5 7 12 13 14 15	65.3
2'F-ANA at 1 2 5 7 11 13	49.9
2'F-ANA at 1 2 3 7 10 13 15	121
2'F-ANA at 2 4 6 10 11 15	73.9

A few entries again (sample 4):
Oligonucleotide	log2 enrichment
CAAGUCCUGUGCUACACAUCGUAUGUACCGAAUCGGGUGGGUGGGAAAAAAAGGGAAAGUAUUAUGUUACGCCGUUCGGAUCUGCACUUC	0.218
CCUGUGCUACACAUCGUAUGUACCGAAUCGGGGUUUUUUGGGUUUUUUGGGGUUUUUUGGGAAAGUAUUAUGUUACGCCGUUCGGAUCUG	-1.04
CUCAAGUCCUGUGCUACACAUCGUAUGUACCGAAUCGGCCGGGCCGGGGCCGGGAAAGUAUUAUGUUACGCCGUUCGGAUCUGCACUUCC	-1.07
UGGGAGGUGGAUUUUGUUUAUUUUUUUAGCUCAUUUCCAGGGGUGGGAAUUUUUUUUUAAUAUGUGUGAUGAAUAAAGUUGUUUUUGAAA	3.08
AAGUCCUGUGCUACACAUCGUAUGUACCGAAUCGGAAAAAAAGGUGGUUUUUUUGGAAAGUAUUAUGUUACGCCGUUCGGAUCUGCACUU	-2.04
CACAGACAACACGCACCCACACAGACACAGAGGGAAGGGGUUGGGAUGGGGACAGGGUGCACAGCAGGGCGGGGUAGGCCCCCAGCCCCU	-1.37
